# Measured values from different studies.
# Each line is one published result; not all experiments were run side by side. “And” joins repeats or separate records; there may be more than shown. Numbers after ± are the reported error.
Compound,tested on,test,system,conditions,scale,quantity,value
COc1cccc(Nc2nc(NCC3CCCO3)c3ccccc3n2)c1.Cl (centres unmarked),Renilla luciferase reporter mRNA,"in vitro translation, inhibitor",Trypanosoma cruzi translation extract,10 µM,,inhibition,16%
O=C(O)c1cn[nH]c1,THP-1,pyroptotic LDH release,,"2 µM, 40 min, together with: LPS then nigericin",,inhibition,44.7%
O=C(O)c1ccc2c(c1)nc(NCCc1cccc(F)c1)c1ncncc12,DYRK and HIPK kinases,"enzyme activity, inhibitor, eight-kinase enzymatic panel",,"1 µM, percent of control below 10",,number of kinases inhibited,1
Cl.Fc1ccc(Nc2nc(NCC3CCCO3)c3ccccc3n2)cc1 (centres unmarked),Renilla luciferase reporter mRNA,"in vitro translation, inhibitor",Trypanosoma cruzi translation extract,5 µM,,inhibition,20.9%
O=C(NN=Cc1ccc(C[n+]2ccccc2)cc1)c1ccc2ccc3ccc(C(=O)NN=Cc4ccc(C[n+]5ccccc5)cc4)nc3c2n1.[Br-].[Br-],MYC parallel G4 DNA,FRET melting,,"1 µM, DNA 0.2 µM, together with: duplex DNA competitor 10 µM",,ΔTm,21.7 ± 0.3 °C
CN(CCCC(F)(F)F)c1nccc(-c2cnn3ncccc23)n1,FLT3 ITD human,KINOMEscan binding,,1000 nM,reference: control,remaining binding,100%
Cn1cc(C(=O)O)ccc1=O,THP-1,pyroptotic LDH release,,"2 µM, 40 min, together with: LPS then nigericin",,inhibition,40.2%
C[n+]1cccc2cc(C=NNC(=O)c3ccc4ccc5ccc(C(=O)NN=Cc6ccc7c(ccc[n+]7C)c6)nc5c4n3)ccc21.[I-].[I-],myc22 MYC G4-DNA parallel,FRET melting,,"1 µM, K1 buffer, DNA 0.2 µM, together with: ds26 10 µM",,ΔTm,27.8 ± 2.7 °C
O=C(O)c1ccc2c(c1)nc(Nc1ccc(F)c(Cl)c1)c1ncncc12,DYRK and HIPK kinases,"enzyme activity, inhibitor, eight-kinase enzymatic panel",,"1 µM, percent of control below 10",,number of kinases inhibited,5
C#Cc1cc(-c2cc(Nc3nc(N[C@@H](C)c4ccc(F)cn4)ncc3Cl)n[nH]2)ccc1C=O,"FLT3 ITD, human","kinase activity, inhibitor",,0.2 µM,,inhibition,99% and 98.3%
C=CC(=O)N1CCC(COCC(=O)N2CCN(c3nc(-c4cnc(N)nc4C(F)F)nc(N4CCOC[C@@H]4C)n3)CC2)CC1,FLT3 ITD D835V,KINOMEscan,,1 µM,,remaining binding,100%
CCNC(=O)/C=C/c1cccc(Br)c1,endogenous leucine transporters hamster,"inhibitor, L-[14C]leucine uptake",CHO-BC cells,"30 µM, sodium-free",,L-leucine uptake,34 nmol/6 min/mg protein and 35.8 nmol/6 min/mg protein and 35.5 nmol/6 min/mg protein
Oc1ccccc1-c1n[nH]cc1-c1ccnc2ccccc12,IRE1 (Candida albicans),"kinase binding, MIB/MS competition",Candida albicans lysate,1 µM,reference: DMSO,log2 fold change,-0.01
Cl.OCCNc1nc(Nc2ccccc2)nc2ccccc12,Renilla luciferase reporter mRNA,"in vitro translation, inhibitor",Trypanosoma cruzi translation extract,20 µM,,inhibition,49.3%
O=C(O)c1ccc2c(c1)nc(Nc1cccc(F)c1)c1ccncc12,DYRK and HIPK kinases,"enzyme activity, inhibitor, eight-kinase enzymatic panel",,"1 µM, percent of control below 10",,number of kinases inhibited,5
CC(Nc1nc(N2CCCC2)nc2ccccc12)c1ccccc1 (centres unmarked),importin α/β1,"cMyc nuclear import, high content imaging",HeLa Kyoto reporter,"0.05 µM, 2 h",,cells with nuclear reporter,86.9%
O=C(O)c1ccc2c(c1)nc(NCCc1cccc(Cl)c1)c1ncncc12,DYRK and HIPK kinases,"enzyme activity, inhibitor, eight-kinase enzymatic panel",,"1 µM, percent of control below 10",,number of kinases inhibited,0
N[C@@H]1CCN(c2nccc(-c3cnn4ncccc34)n2)C1,FLT3 ITD human,KINOMEscan binding,,1000 nM,reference: control,remaining binding,98%
Cc1ccc(C(=O)NCc2ccsc2)cc1C#Cc1cn(C(C)C)c2ncnc(N)c12,casein kinase 1 (yeast),enzyme activity,,"1 µM, together with: ATP at Km",,remaining activity,50%
F[C@@H]1CCN(c2nccc(-c3cnn4ncccc34)n2)C1,FLT3 ITD human,KINOMEscan binding,,1000 nM,reference: control,remaining binding,100%
O=C(O)c1ccc2c(c1)nc(NCCc1ccccc1)c1ncncc12,DYRK and HIPK kinases,"enzyme activity, inhibitor, eight-kinase enzymatic panel",,"1 µM, percent of control below 10",,number of kinases inhibited,1
COc1ccc(F)cc1C(=O)NCc1ccc(-c2nn([C@@H](C)C(F)(F)F)c(N)c2C(N)=O)cc1,PLCγ2 human,"PLCγ2 phosphorylation, item: PLCγ2 Y1217",Rec1,,,IC50,0.0517 µM
CN(C)c1nccc(-c2cnc3ncccn23)n1,FLT3 ITD human,KINOMEscan binding,,1000 nM,reference: control,remaining binding,100%
Cc1ncc(C[n+]2csc(CCO[P@](=O)(O)OP(=O)(O)O)c2C)c(N)n1,SAR11_0797 Candidatus Pelagibacter ubique,differential scanning fluorimetry,,"concentration not given, unit not given",higher = stronger binding,ΔTm,2.07
Cc1ccc(C(=O)Nc2ccc3ccccc3c2)o1,human Kv7.1,"ion current, whole-cell patch-clamp",,10 µM,,inhibition,7.91%
Clc1nc(NCc2ccco2)c2[nH]cnc2n1,alpha-galactosidase A (GLA) human,activator,Fabry disease iPSC-derived cardiomyocytes,10 µM,reference: wild type,enzyme activity,8.5%
O=C(O)c1ccc2c(c1)nc(Nc1cccc(F)c1)c1ncncc12,DYRK and HIPK kinases,"enzyme activity, inhibitor, eight-kinase enzymatic panel",,"1 µM, percent of control below 10",,number of kinases inhibited,5
COc1cc(/C=C/C(=O)CC(=O)/C=C/c2ccc(O)c(OC)c2)ccc1O,17β-HSD (human),androstenedione formation,LS180,"100 µM, together with: testosterone 50 µM",,inhibition,~50%
CC[C@H](C)[C@H](NC(=O)[C@H](CC(=O)O)NC(=O)[C@H](CCC(=O)O)NC(=O)[C@@H](N)CC(N)=O)C(=O)N[C@@H](CC(=O)O)C(=O)N[C@@H](CCC(N)=O)C(=O)N[C@@H](CCSC)C(=O)N[C@@H](Cc1ccccc1)C(=O)N[C@@H](CO)C(=O)N[C@H](C(=O)N[C@@H](CC(C)C)C(=O)N[C@@H](CC(C)C)C(=O)NCC(=O)N[C@@H](CCC(=O)O)C(=O)N[C@@]1(C)CCCC=CCCC[C@@](C)(C(=O)N[C@@H](CCC(N)=O)C(=O)N[C@@H](CO)C(=O)O)NC(=O)[C@H](CC(C)C)NC(=O)[C@H](CC(C)C)NC(=O)[C@H](CC(=O)O)NC1=O)[C@@H](C)O,talin head domain,"inhibitor, PAC-1 flow cytometry",CHO-A5 expressing GFP-talin head domain,"10 µM, 30 min, 37 °C",,integrin αIIbβ3 activation,inhibited
CN(C)c1nccc(-c2cnn3ncccc23)n1,FLT3 ITD human,KINOMEscan binding,,1000 nM,reference: control,remaining binding,85%
Cn1cc(-c2ccc(-c3cncc(Cl)c3N3CCC4(CCNC4=O)CC3)cc2)cn1,COLO 205,"microarray, item: NRP1",,"concentration not given, 2 h, gene set Neuropilin-1",reference: untreated cells,fold change in expression,3.2
C[C@@H](c1ccc(-n2cnc3c(N)ncnc32)cc1)N1CCc2nn(C)c(Cc3ccccc3)c2C1=O,FLT3 ITD D835V,KINOMEscan,,100 nM,reference: DMSO,remaining binding,74%
CN1C[C@H](COc2nccc3c(NCc4ccco4)cc(Cl)nc23)OC1=O,alpha-galactosidase A (GLA) human,activator,Fabry disease iPSC-derived cardiomyocytes,10 µM,reference: wild type,enzyme activity,17.2%
O=C(O)c1ccc2c(c1)nc(Nc1ccc3ccccc3c1)c1ncncc12,DYRK and HIPK kinases,"enzyme activity, inhibitor, eight-kinase enzymatic panel",,"1 µM, percent of control below 10",,number of kinases inhibited,6
Fc1ccccc1Nc1nc(NCC2CCCO2)c2ccccc2n1 (centres unmarked),Renilla luciferase reporter mRNA,"in vitro translation, inhibitor",Trypanosoma cruzi translation extract,20 µM,,inhibition,51.4%
C[N+](C)(C)CC(=O)O,SAR11_0797 Candidatus Pelagibacter ubique,differential scanning fluorimetry,,"concentration not given, unit not given",higher = stronger binding,ΔTm,4.27
O=C(O)c1ccc2c(c1)nc(NCc1ccccc1)c1ccncc12,DYRK and HIPK kinases,"enzyme activity, inhibitor, eight-kinase enzymatic panel",,"1 µM, percent of control below 10",,number of kinases inhibited,0
c1coc(-c2n[nH]cc2-c2ccnc3ccccc23)c1,KSP1 (Candida albicans),"kinase binding, MIB/MS competition",Candida albicans lysate,1 µM,reference: DMSO,log2 fold change,-0.17

# A few entries again:
Compound,tested on,test,system,conditions,scale,quantity,value
Cn1cc(-c2ccc(-c3cncc(Cl)c3N3CCC4(CCNC4=O)CC3)cc2)cn1,COLO 205,"microarray, item: NRP1",,"concentration not given, 2 h, gene set Neuropilin-1",reference: untreated cells,fold change in expression,3.2
C[C@@H](c1ccc(-n2cnc3c(N)ncnc32)cc1)N1CCc2nn(C)c(Cc3ccccc3)c2C1=O,FLT3 ITD D835V,KINOMEscan,,100 nM,reference: DMSO,remaining binding,74%
CN1C[C@H](COc2nccc3c(NCc4ccco4)cc(Cl)nc23)OC1=O,alpha-galactosidase A (GLA) human,activator,Fabry disease iPSC-derived cardiomyocytes,10 µM,reference: wild type,enzyme activity,17.2%
O=C(O)c1ccc2c(c1)nc(Nc1ccc3ccccc3c1)c1ncncc12,DYRK and HIPK kinases,"enzyme activity, inhibitor, eight-kinase enzymatic panel",,"1 µM, percent of control below 10",,number of kinases inhibited,6
Fc1ccccc1Nc1nc(NCC2CCCO2)c2ccccc2n1 (centres unmarked),Renilla luciferase reporter mRNA,"in vitro translation, inhibitor",Trypanosoma cruzi translation extract,20 µM,,inhibition,51.4%
C[N+](C)(C)CC(=O)O,SAR11_0797 Candidatus Pelagibacter ubique,differential scanning fluorimetry,,"concentration not given, unit not given",higher = stronger binding,ΔTm,4.27
